Assay results pooled from the literature.
Lines come from different studies, so protocols differ. Values joined by “and” are separate records of one study, mostly repeats; a detail may differ. ± gives the spread as reported.

SMILES | assay | test system | setting | plasma concentration
NCc1cc2c(cc1F)C(=O)N(C1CCC(=O)NC1=O)C2 (stereo not shown) | – | CD-1 mice | oral, 10 mg/kg, 8 h | not detected
CN1C(=O)c2ccccc2[S@+]([O-])c2ccc(C(=O)NCCc3cccs3)cc21 | – | male C57BL/6 mice, plasma | ip, 30 mg/kg, 24 h, below quantification limit 1 ng/mL | not detected
CC1(C)NC(=O)N(c2ccc(F)c(C(C)(F)F)c2)C1=O | – | male Swiss outbred mice, plasma | oral, 100 mg/kg, 24 h | 32800 ± 324 ng/mL
O=[N+]([O-])c1ccc(-c2ccc(O)cc2)c2cccnc12 | – | male ICR mice, plasma | intravenous, 1 mg/kg, 0.25 h | 113 ng/mL
CC[C@H](C)[C@H](NC(=O)[C@H](CCC(=O)O)NC(=O)[C@H](CO)NC(=O)[C@@H](NC(=O)[C@@H](N)CO)C(C)C)C(=O)N[C@@H](CCC(N)=O)C(=O)N[C@@H](CC(C)C)C(=O)N[C@@H](CCSC)C(=O)N[C@@H](Cc1cnc[nH]1)C(=O)N[C@@H](CC(N)=O)C(=O)N[C@@H](CC(C)C)C(=O)NCC(=O)N[C@@H](CCCCN)C(=O)N[C@@H](Cc1cnc[nH]1)C(=O)N[C@@H](CC(C)C)C(=O)N[C@@H](CC(N)=O)C(=O)N[C@@H](CO)C(=O)N[C@@H](CCSC)C(=O)N[C@@H](CCC(=O)O)C(=O)N[C@@H](CCCNC(=N)N)C(=O)N[C@H](C(=O)N[C@@H](CCC(=O)O)C(=O)N[C@@H](Cc1c[nH]c2ccccc12)C(=O)N[C@@H](CC(C)C)C(=O)N[C@@H](CCCNC(=N)N)C(=O)N[C@@H](CCCCN)C(=O)N[C@@H](CCCCN)C(=O)N[C@@H](CC(C)C)C(=O)N[C@@H](CCC(N)=O)C(=O)N[C@@H](CC(=O)O)C(=O)N[C@H](C(=O)N[C@@H](Cc1cnc[nH]1)C(=O)N[C@@H](CC(N)=O)C(=O)N[C@@H](Cc1ccccc1)C(N)=O)C(C)C)C(C)C | ELISA | female CD-1 mice, blood plasma | subcutaneous, 10 nmol/kg, 4 h | 0.025 nM
COc1cc(F)c([C@@H]2CNC(=O)[C@H]2NC(=O)Nc2ccccc2)c(F)c1 | – | C57BL/6 mice, LPS challenge, plasma | oral, 0.3 mg/kg, 1.5 h post dose | 8 ± 2 nM
Cc1cc([C@@H](C)Nc2ccccc2C(=O)O)c2nc(N3CCC(F)(F)CC3)c(C#N)c(=O)n2c1 | – | NOD SCID mice, HCC1954 xenograft | oral, 100 mg/kg once daily, 1 h | 76 ng/mL
COc1nc(-c2cc(C)c(N[C@@H](C)c3cc(F)cc(F)c3)nn2)ccc1-n1cnc(C)c1 | – | C57BL/6J mice, male, plasma | oral, 25 mg/kg daily for 9 days, 4 h after last dose | 13200 ng/mL
Cc1cc2sc(N)nc2c2cccnc12 | LC-MS | BALB/c mice, female | intraperitoneal, 30 mg/kg, 4 h | 1030 ± 130 ng/mL
COc1cc2c(Nc3ccc(Cl)c(Cl)c3F)ncnc2cc1OC[C@@H]1C[C@@H]2CN(C)C[C@@H]2C1 | – | FVB wild-type mice, both sexes, plasma | intraperitoneal infusion (osmotic pump), 10 mg/mL at 1 µL/h, 48 h | 1730 ng/g
O=Cc1cc2c(cc1F)C(=O)N(C1CCC(=O)NC1=O)C2 (stereo not shown) | – | CD-1 mice | intravenous, 1 mg/kg, 0.5 h | not detected
Cc1ccc(CCC(=O)Nc2nnc(S(N)(=O)=O)s2)cc1 | – | BALB/c mice, plasma | oral, 20 mg/kg, 24 h | not detected
O=C1CCC(N2Cc3cc(CO)c(F)cc3C2=O)C(=O)N1 (stereo not shown) | – | CD-1 mice | intravenous, 1 mg/kg, 8 h | not detected
CN(C)CC#Cc1ccc2[nH]c3c(c2c1)-c1nc(N)ncc1CCC3 | – | CD-1 mice, male, plasma | intraperitoneal, 30 mg/kg, 1 h | 809 ng/mL and 659 ng/mL
COc1nc(-c2cc(C)c(N[C@@H](C)c3c(F)cc(F)cc3F)nn2)ccc1-n1cnc(C)c1 | – | C57BL/6J mice, male, plasma | oral, 10 mg/kg daily for 9 days, 4 h after last dose | 2160 ng/mL
O=S(=O)(c1ccc(-c2ccc3nccc(Nc4ccncn4)c3c2)cc1)N1CCOCC1 | – | female BALB/c mice, plasma | intraperitoneal, 10 mg/kg, 0.08 h | 2270 ng/mL and 2750 ng/mL
